Published values pooled from the literature.
Numbered parts are unrelated; each lists some results of a single study.

Study 1
Target: Histone acetyltransferase KAT6A, winged helix 2, GST fusion (KAT6A, Homo sapiens, UniProt Q92794, residues 85-181)
Method: protein binding microarray
Molecule type: double-stranded DNA, one strand shown
Matrix: in vitro
Concentration: not given
Setting: 8-mer, flanks averaged, mean of 2 arrays, mostly near background
Reference: not given
Direction: higher = stronger binding
Target sequence (chain): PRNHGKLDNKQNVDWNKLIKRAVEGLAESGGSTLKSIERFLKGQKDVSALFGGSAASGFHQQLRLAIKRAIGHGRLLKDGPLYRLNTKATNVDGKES
| Sequence | E-score |
| --- | --- |
| CCCCTCAC | 0.125 |
| CTGCATGA | -0.19 |
| GGCAAGAA | 0.185 |
| CAGAAGGA | 0.0314 |
| GAGTGTCA | 0.0902 |

Study 2
Target: RNA binding protein fox-1 homolog 2, RRM domain, GST-SBP tag (RBFOX2, Homo sapiens, UniProt O43251-10, residues 100-194)
Method: RNA Bind-n-Seq
Molecule type: RNA
Matrix: in vitro
Concentration: 365 nM
Setting: natural RNA segment, single round, ends assumed
Reference: no-protein control
Direction: higher = stronger binding
Constant ends, left off below: GGGAGUUCUACAGUCCGACGAUC … UGGAAUUCUCGGGUGCCAA
Residues (chain): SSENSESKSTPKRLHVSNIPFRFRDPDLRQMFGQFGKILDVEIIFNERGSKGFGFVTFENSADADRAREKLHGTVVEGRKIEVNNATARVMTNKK
| Sequence | RBNS enrichment (R) |
| --- | --- |
| CCAAAGACCCUACAUCGAAUUUCCUUGAAGAAUGGUUCACGGGAUUUCUGUCCCUGAUGAAAGACUGCCCAUUCACCUUGGUUCCCUCCCCUUGUGGCUAAACGAAAGCA | 12.1 |
| CCUCCUUUGGCUUGUGGGAUCCUUUUUCUCUAAUAUCUGUCUUUCUUUUUUUAGUUGAUCUUUCCACCCACUCCCCUUUCUCCUCUUCUCCACUGAGAAUAAUCUCCCUG | 1.14 |
| UUCUAUUAUGACAUGUACCUCGAAGAAGGGGGUGUGUCUAGCAAUGAUUUCUCUUCUCUGGAGGCUUUGUGUAAGAAAAUCAUUAAAGAAAAACAAGCUUUUGAAAGACU | 0.601 |
| GCAUAUACCAAAGGCCAGCUGCAUGCCCAUCAGUCUGGUCUUUUUCCUCUGCGGUCAUGUUGGCUUUCAUGCUGGAUCAAAUGUUUUACUUUCCCAGACUGGUGGCAUCU | 4.11 |
| UGCUGUUCUUCUAUGUCGUCCUCUUGAGAAAGCUGCAAGGGUUUACCUCUUUCCUUGACUCUCUUCUUAUUUGUAAUACUCUGAGUUCUGCAUCUGUCUCAGACAGGAGC | 0.335 |
| UUUCCCAAAGACCCACACUAUGUAUCAGGAGCCUGCACCAUGCCAUUUGAAUGACCCUCAGCAAUGUGCCUCCCUGCCCUCAAAUUCCCAGUUGAUAACAGUGUUUGAUU | 6.96 |

Study 3
Target: Ras GTPase-activating protein-binding protein 1, C-terminal RGG region (G3BP1, Homo sapiens, UniProt Q13283)
Chain of UniProt Q13283 (whole entry, looked up): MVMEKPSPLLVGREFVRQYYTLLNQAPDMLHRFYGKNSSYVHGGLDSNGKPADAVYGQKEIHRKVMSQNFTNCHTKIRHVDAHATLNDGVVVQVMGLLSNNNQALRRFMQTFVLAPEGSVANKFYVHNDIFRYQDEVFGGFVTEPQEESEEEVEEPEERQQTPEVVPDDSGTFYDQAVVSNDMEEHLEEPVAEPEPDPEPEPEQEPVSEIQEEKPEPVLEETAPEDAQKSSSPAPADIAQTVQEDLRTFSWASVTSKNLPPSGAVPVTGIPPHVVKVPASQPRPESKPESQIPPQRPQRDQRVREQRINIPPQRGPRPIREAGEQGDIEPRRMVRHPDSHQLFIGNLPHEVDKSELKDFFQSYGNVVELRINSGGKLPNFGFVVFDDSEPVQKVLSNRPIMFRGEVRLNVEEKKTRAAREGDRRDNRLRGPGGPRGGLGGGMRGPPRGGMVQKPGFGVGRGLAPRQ
Method: RNA Bind-n-Seq
Molecule type: RNA
Matrix: in vitro
Concentration: 1 µM
Setting: whole 134-nt RNA, ends assumed
Added: 150 mM KCl
Reference: input library
Direction: higher = stronger binding
| Sequence | log2 enrichment |
| --- | --- |
| GGGAGUUCUACAGUCCGACGAUCUCCUGUGCUACACAUCGUAUGUACCGAAUCGGGGUUUGGGGUUUUUUUGGGGAAAGGGGAAAGUAUUAUGUUACGCCGUUCGGAUCUGCAUGGAAUUCUCGGGUGUCAAGG | 2.36 |
| GGGAGUUCUACAGUCCGACGAUCCCUGUGCUACACAUCGUAUGUACCGAAUCGGGCCCCCCGGGCCCCCCGGGCCCCCCGGGGAAAGUAUUAUGUUACGCCGUUCGGAUCUGCUGGAAUUCUCGGGUGUCAAGG | -2.1 |
| GGGAGUUCUACAGUCCGACGAUCGCACGAAGUAAAAACAAAUGGAAAUGCUUCGGAUAGUGGCAGGGGUGGGGGUUGCUAAGGAAAGGGUGGGAUGGGAGUGGGUAAAGAGUUUGGAAUUCUCGGGUGUCAAGG | 1.71 |

Single results of other studies
| Molecule | target | assay | system | setting | scale | quantity | result |
| --- | --- | --- | --- | --- | --- | --- | --- |
| PhoQ, residues 284 288 289 292 302 303 GLASVI | PhoP, residues 12 14 15 18 19 QWHVF (Escherichia coli, UniProt P23836) | Sort-seq, measured: YFP reporter | E. coli | PhoQ-PhoP variant library, added: 10 µM Mg2+ | reference: high Mg2+ state, higher = stronger signaling | fold induction | 5.13 |

Repeated from above (study 2):
| Sequence | RBNS enrichment (R) |
| --- | --- |
| UUCUAUUAUGACAUGUACCUCGAAGAAGGGGGUGUGUCUAGCAAUGAUUUCUCUUCUCUGGAGGCUUUGUGUAAGAAAAUCAUUAAAGAAAAACAAGCUUUUGAAAGACU | 0.601 |
| GCAUAUACCAAAGGCCAGCUGCAUGCCCAUCAGUCUGGUCUUUUUCCUCUGCGGUCAUGUUGGCUUUCAUGCUGGAUCAAAUGUUUUACUUUCCCAGACUGGUGGCAUCU | 4.11 |
